Experimental data of several laboratories.
Each line is one published result; not all experiments were run side by side. ± marks the error that the study gave.
GRPR: Gastrin-releasing peptide receptor (GRPR, Homo sapiens, UniProt P30550)
Chain of UniProt P30550 (whole entry, looked up): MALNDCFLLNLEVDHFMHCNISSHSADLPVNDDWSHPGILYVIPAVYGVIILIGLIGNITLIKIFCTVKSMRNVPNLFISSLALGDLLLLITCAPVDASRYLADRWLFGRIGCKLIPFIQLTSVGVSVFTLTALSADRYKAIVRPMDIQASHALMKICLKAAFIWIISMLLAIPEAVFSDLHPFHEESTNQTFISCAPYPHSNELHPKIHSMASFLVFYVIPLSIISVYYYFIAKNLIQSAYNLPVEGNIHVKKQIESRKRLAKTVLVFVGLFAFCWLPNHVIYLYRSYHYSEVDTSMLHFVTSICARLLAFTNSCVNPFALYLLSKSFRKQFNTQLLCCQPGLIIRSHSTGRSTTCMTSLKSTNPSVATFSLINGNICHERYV
CHRM1: Muscarinic acetylcholine receptor M1 (CHRM1, Homo sapiens, UniProt P11229)
Chain of UniProt P11229 (whole entry, looked up): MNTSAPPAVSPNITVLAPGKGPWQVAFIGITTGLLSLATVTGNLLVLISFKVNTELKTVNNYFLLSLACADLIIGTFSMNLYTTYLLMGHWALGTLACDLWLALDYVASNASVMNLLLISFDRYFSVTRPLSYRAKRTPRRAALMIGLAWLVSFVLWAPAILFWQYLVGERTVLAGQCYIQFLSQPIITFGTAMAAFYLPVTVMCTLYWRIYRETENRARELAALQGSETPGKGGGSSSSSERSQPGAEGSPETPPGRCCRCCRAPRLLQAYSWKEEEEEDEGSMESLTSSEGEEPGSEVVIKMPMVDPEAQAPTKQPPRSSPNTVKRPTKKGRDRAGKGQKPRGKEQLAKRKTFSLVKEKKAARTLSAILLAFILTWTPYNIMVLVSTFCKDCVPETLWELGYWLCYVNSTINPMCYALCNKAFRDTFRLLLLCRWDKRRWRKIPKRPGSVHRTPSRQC
Chain of UniProt P05804 (whole entry, looked up): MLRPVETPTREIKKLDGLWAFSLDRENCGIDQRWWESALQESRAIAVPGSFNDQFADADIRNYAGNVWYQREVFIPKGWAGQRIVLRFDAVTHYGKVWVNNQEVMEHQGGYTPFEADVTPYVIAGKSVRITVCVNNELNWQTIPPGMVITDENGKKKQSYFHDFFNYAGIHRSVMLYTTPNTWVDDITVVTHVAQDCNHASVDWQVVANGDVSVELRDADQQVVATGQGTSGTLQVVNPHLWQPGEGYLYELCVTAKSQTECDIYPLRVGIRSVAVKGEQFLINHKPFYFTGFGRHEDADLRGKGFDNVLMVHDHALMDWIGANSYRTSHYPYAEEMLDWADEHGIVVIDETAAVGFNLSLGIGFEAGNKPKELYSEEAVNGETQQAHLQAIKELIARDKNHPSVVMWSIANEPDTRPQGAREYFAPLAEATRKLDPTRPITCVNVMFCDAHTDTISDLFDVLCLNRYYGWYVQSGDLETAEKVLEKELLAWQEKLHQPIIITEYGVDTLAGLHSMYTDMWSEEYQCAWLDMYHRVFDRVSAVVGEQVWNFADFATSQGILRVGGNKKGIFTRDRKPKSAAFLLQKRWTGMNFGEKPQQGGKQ
Chain of UniProt Q6VVW5 (whole entry, looked up): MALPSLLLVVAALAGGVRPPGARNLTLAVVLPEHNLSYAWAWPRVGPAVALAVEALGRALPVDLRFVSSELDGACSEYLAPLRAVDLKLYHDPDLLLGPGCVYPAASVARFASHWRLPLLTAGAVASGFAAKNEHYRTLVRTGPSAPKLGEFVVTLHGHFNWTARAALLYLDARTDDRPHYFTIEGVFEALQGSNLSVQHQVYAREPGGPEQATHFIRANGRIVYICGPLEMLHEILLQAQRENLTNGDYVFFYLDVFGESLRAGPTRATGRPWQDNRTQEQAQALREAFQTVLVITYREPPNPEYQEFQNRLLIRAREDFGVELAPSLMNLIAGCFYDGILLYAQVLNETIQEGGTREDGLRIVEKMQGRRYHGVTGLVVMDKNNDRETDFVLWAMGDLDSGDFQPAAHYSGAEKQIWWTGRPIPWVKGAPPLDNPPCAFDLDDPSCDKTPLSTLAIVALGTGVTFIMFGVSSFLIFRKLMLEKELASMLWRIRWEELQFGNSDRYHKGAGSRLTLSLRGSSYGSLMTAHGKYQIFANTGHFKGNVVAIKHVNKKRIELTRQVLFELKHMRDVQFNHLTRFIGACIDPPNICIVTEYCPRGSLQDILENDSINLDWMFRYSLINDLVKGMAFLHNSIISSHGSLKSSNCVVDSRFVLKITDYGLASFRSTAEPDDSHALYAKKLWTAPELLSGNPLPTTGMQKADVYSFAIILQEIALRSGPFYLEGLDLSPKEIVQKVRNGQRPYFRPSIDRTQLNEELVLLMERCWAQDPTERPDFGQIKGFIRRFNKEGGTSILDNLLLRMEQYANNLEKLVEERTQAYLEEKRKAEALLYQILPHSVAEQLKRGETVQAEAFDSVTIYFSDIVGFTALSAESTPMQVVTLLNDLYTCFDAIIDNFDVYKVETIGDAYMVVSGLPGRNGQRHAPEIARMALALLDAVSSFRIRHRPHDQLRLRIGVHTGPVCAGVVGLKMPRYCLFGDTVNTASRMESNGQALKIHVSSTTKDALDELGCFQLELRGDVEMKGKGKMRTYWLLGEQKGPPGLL
Chain of UniProt Q01727 (whole entry, looked up): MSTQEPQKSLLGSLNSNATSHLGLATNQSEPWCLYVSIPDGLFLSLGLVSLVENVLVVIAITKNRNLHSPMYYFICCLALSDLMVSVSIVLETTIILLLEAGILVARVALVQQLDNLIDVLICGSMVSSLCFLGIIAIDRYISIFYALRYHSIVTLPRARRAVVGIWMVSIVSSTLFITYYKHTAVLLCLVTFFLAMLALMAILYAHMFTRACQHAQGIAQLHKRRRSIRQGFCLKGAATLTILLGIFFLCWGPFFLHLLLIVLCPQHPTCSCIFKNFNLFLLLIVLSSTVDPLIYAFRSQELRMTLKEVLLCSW
Chain of UniProt A7T1N0 (whole entry, unmodified, looked up): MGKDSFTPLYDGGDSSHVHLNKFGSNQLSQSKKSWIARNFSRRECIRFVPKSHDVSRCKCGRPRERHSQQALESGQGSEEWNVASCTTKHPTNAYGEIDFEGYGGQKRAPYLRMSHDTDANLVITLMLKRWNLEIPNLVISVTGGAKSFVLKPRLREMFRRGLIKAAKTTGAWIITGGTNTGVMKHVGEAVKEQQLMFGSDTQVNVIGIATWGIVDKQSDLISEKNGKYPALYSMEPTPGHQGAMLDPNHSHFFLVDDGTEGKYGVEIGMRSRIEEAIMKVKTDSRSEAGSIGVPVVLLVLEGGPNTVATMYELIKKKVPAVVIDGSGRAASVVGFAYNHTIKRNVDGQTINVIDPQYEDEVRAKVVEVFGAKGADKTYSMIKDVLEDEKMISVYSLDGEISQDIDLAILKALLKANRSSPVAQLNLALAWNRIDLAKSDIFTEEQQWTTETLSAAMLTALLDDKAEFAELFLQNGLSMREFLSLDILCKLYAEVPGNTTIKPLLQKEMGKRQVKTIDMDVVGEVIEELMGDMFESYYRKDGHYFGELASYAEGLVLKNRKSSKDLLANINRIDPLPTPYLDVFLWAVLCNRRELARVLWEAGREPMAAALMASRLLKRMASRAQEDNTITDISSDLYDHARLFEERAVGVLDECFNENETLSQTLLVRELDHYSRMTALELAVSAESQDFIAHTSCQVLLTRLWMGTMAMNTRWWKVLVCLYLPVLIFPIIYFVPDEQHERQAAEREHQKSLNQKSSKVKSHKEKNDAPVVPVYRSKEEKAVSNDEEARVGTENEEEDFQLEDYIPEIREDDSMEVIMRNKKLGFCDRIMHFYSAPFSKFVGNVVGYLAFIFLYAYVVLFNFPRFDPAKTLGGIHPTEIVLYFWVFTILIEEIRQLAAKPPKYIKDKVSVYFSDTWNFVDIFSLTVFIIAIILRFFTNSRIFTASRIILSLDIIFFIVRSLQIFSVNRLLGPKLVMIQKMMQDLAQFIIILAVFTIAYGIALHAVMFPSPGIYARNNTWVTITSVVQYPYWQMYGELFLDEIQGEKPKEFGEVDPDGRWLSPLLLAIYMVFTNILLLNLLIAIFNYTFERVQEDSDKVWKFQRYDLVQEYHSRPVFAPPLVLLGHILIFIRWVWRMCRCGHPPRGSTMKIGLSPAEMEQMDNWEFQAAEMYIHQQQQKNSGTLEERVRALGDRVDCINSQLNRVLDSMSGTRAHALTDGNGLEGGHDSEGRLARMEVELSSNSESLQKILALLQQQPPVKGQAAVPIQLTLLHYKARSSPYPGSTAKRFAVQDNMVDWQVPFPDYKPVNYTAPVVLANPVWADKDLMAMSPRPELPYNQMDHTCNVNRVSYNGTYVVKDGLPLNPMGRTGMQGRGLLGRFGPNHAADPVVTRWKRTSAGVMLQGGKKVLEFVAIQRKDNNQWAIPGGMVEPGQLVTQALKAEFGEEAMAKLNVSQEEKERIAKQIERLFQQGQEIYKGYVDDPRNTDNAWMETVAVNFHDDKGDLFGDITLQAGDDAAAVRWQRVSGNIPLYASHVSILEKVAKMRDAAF
Chain of UniProt Q04759 (whole entry, looked up): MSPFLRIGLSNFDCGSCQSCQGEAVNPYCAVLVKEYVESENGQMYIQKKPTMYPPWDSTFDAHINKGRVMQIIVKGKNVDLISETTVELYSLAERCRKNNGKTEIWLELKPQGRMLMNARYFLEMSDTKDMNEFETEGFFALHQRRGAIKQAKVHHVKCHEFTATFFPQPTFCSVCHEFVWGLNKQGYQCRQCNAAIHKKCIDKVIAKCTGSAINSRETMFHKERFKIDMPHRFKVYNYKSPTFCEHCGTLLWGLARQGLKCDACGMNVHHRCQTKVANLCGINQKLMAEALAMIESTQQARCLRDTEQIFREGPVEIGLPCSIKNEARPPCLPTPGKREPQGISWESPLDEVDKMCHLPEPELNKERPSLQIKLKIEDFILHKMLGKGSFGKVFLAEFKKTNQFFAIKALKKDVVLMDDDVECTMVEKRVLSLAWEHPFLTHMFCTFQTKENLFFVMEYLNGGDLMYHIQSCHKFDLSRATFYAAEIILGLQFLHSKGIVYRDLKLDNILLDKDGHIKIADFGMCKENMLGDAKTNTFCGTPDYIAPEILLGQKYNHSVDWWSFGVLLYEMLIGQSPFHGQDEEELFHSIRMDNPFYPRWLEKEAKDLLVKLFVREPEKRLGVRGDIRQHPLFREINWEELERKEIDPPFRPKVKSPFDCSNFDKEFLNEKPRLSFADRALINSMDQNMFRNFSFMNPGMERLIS

Compound | target | assay | system | conditions | scale | EC50
CCc1noc(CC)c1C(=O)O[C@H]1C(C)=C[C@]23C(=O)[C@@H](C=C(CO)[C@@H](O)[C@]12O)[C@H]1[C@@H](C[C@H]3C)C1(C)C | PRKCQ (Homo sapiens, UniProt Q04759) | enzyme activity, activator | – | – | – | 11 nM
CC[C@H](C)[C@H](NC(=O)[C@H](CCCNC(=N)N)NC(=O)[C@@H]1CCCN1C(=O)[C@@H](NC(=O)[C@@H](NC(=O)[C@H](CCCCN)NC(=O)[C@H](CC(C)C)NC(=O)[C@H](CC(N)=O)NC(=O)[C@H](CCCCN)NC(=O)[C@@H](NC(=O)[C@H](C)NC(=O)[C@H](Cc1ccccc1)NC(=O)[C@H](CC(N)=O)NC(=O)[C@H](CCC(=O)O)NC(=O)CN)[C@@H](C)CC)[C@@H](C)O)[C@@H](C)CC)C(N)=O | Ecdysis triggering hormone receptor B (Aedes aegypti, UniProt A7J265) | – | – | – | – | ~48 nM
Nc1ncnc2c1ncn2C1OC(COP(=O)(O)OP(=O)(O)OCC2OC(O)C(O)C2O)C(O)C1O (stereo not drawn) | TRPM2 (Nematostella vectensis, UniProt A7T1N0, T143A) | channel activation, agonist, inside-out patch clamp | – | T143A, 2.5 µM PIP2, together with: 125 µM Ca2+ | – | 6300 ± 300 nM
CC[C@H](C)[C@H](NC(=O)[C@H](CO)NC(=O)[C@H](Cc1ccc(O)cc1)NC(=O)[C@H](CC(=O)O)NC(=O)[C@H](CO)NC(=O)[C@@H](NC(=O)[C@H](Cc1ccccc1)NC(=O)[C@@H](NC(=O)CNC(=O)[C@H](CCC(=O)O)NC(=O)C(C)(C)NC(=O)[C@@H](N)Cc1ccc(O)cc1)[C@@H](C)O)[C@@H](C)CC)C(=O)N[C@@H](C)C(=O)N[C@@H](CCSC)C(=O)N[C@@H](CC(=O)O)C(=O)N[C@@H](CCCCN)C(=O)N[C@H](C(=O)N[C@@H](CCCNC(=N)N)C(=O)N[C@@H](CCC(N)=O)C(=O)N[C@@H](CCC(N)=O)C(=O)N[C@@H](CC(=O)O)C(=O)N[C@@H](Cc1ccccc1)C(=O)N[C@H](C(=O)N[C@@H](CC(N)=O)C(=O)N[C@@H](Cc1c[nH]c2ccccc12)C(=O)N[C@@H](CC(C)C)C(=O)N[C@@H](CC(C)C)C(=O)N[C@@H](C)C(=O)N[C@@H](CCC(N)=O)C(=O)N[C@@H](CCCCN)C(=O)NCC(=O)N[C@@H](CCCCN)C(=O)N[C@@H](CCCCN)C(=O)N[C@@H](CC(N)=O)C(=O)N[C@@H](CC(=O)O)C(=O)N[C@@H](Cc1c[nH]c2ccccc12)C(=O)N[C@@H](CCCCN)C(=O)N[C@@H](Cc1c[nH]cn1)C(=O)N[C@@H](CC(N)=O)C(=O)N[C@H](C(=O)N[C@H](C(=O)N[C@@H](CCC(N)=O)C(=O)O)[C@@H](C)O)[C@@H](C)CC)C(C)C)[C@@H](C)CC | Gastric inhibitory polypeptide receptor (Mus musculus, UniProt Q0P543) | reporter gene, agonist, luciferase | – | – | – | 0.0034 nM
CSCC[C@H](NC(=O)[C@H](Cc1ccccc1)NC(=O)[C@H](Cc1c[nH]cn1)NC(=O)CNC(=O)[C@@H](NC(=O)[C@H](C)NC(=O)[C@H](Cc1c[nH]c2ccccc12)NC(=O)[C@H](CCC(N)=O)NC(=O)[C@@H]1CCCN1C(=O)CNC(=O)CNC(=O)CNC(=O)[C@@H]1CCC(=O)N1)C(C)C)C(N)=O | GRPR | inositol phosphate, agonist | – | – | – | 0.19 nM
CC[C@H](C)[C@@H]1NC(=O)[C@H](Cc2ccccc2)NC(=O)[C@H](CC(N)=O)NC(=O)[C@@H](NC(=O)[C@@H](NC(=O)[C@H](CO)NC(=O)[C@@H](N)Cc2ccc(O)cc2)[C@@H](C)O)CSC(=O)[C@H](CCSC)NC1=O | agrC (Staphylococcus aureus, UniProt O07911) | – | – | – | – | 40.4 nM
CSCC[C@H](NC(=O)[C@H](CC(C)C)NC(=O)[C@H](CO)NC(=O)CNC(=O)[C@@H](NC(=O)[C@H](C)NC(=O)[C@H](Cc1c[nH]c2ccccc12)NC(=O)[C@H](CC(C)C)NC(=O)[C@@H]1CCC(=O)N1)C(C)C)C(N)=O | GRPR | inositol phosphate generation, agonist | BALB/3T3 transfected with human GRPR | 45 min, 37 °C | baseline: 1 µM GRP | 67.6 ± 2.03 nM
CC(=O)N[C@@H](CCCNC(=N)N)C(=O)N[C@@H](CCCNC(=N)N)C(=O)N[C@H](Cc1ccc(I)cc1)C(=O)N[C@@H](C(N)=O)[C@@H](c1ccccc1)c1c[nH]c2ccccc12 | Mc1r (Mus musculus, UniProt Q01727) | cAMP, agonist, AlphaScreen | – | – | – | 210 nM
C[N+](C)(CC#CCOC1=NOCC1)CCCCCCNC(=O)CCOCCOCCOCCOCCNC(=O)CCCC(=O)NCCCCC(C(=O)O)N(CC(=O)O)CC(=O)O (stereo not drawn) | CHRM1 | calcium response, agonist, fluorescence calcium imaging | primary rat cortical astrocytes | – | – | 340 nM
CC[C@H](C)[C@@H]1NC(=O)[C@H](CCCNC(=N)N)NC(=O)[C@H](CC(=O)O)NC(=O)[C@H](CC(C)C)NC(=O)[C@H](CCCCN)NC(=O)[C@H](CC(C)C)NC(=O)CNC(=O)[C@H](Cc2ccccc2)NC(=O)[C@@H](NC(=O)CNC(=O)[C@H](CCCCN)NC(=O)[C@H](CO)NC(=O)[C@H](CC(C)C)NC(=O)CNC(=O)[C@H](CCCCN)NC(=O)[C@H](CCCCN)NC(=O)[C@H](CCC(N)=O)NC(=O)[C@H](C)NC(=O)CNC(=O)[C@H](CCCCN)NC(=O)[C@H](Cc2ccc(O)cc2)NC(=O)[C@H](CCCCN)NC(=O)[C@H](CCCNC(=N)N)NC(=O)[C@H](C)NC(=O)[C@H](CCC(N)=O)NC(=O)[C@@H]2CCCN2C(=O)[C@H](Cc2c[nH]cn2)NC(=O)[C@H](CCC(=O)O)NC(=O)[C@H](CCC(N)=O)NC(=O)[C@@H](N)CC(C)C)CSSC[C@@H](C(=O)O)NC(=O)CNC(=O)[C@H](CC(C)C)NC(=O)CNC(=O)[C@H](CO)NC(=O)[C@H](CCSC)NC(=O)[C@H](CO)NC(=O)CNC1=O | Atrial natriuretic peptide receptor 2 (Npr2, Mus musculus, UniProt Q6VVW5) | guanylate cyclase activity, agonist, HTRF, measured: cGMP | NIH3T3 | 30 min, 37 °C | – | 3 nM
CSCC[C@H](NC=O)C(=O)N[C@@H](Cc1ccccc1)C(=O)N[C@@H](CCC(=O)O)C(=O)N[C@@H](CC(=O)O)C(=O)N[C@@H](C)C(=O)N[C@H](C(=O)N[C@@H](C)C(=O)N[C@@H](Cc1c[nH]c2ccccc12)C(=O)N[C@@H](Cc1ccccc1)C(=O)O)C(C)C | FPR1 (Homo sapiens, UniProt P21462) | receptor surface downregulation, agonist | CHO cells | 1 h, 37 °C | – | 1500 ± 100 nM
CCNc1nc(Cl)nc(NC(C)(C)C#N)n1 | Estrogen receptor (esr1, Oryzias latipes, UniProt P50241) | receptor activation, agonist | – | – | – | > 100000 nM
CC(C)C[C@H](NC(=O)[C@H](CO)NC(=O)[C@H](Cc1c[nH]c2ccccc12)NC(=O)[C@H](Cc1c[nH]c2ccccc12)NC(=O)[C@H](CC(=O)O)NC(=O)[C@H](CC(C)C)NC(=O)CN)C(=O)O | Transcriptional regulator ComR (Streptococcus mutans serotype c, UniProt Q8DWI6) | – | Streptococcus mutans | – | – | 440 nM
C1CCN(c2nnnc3c2sc2nc(N4CCOCC4)c4c(c23)CCCC4)CC1 | Beta-glucuronidase (uidA, Escherichia coli, UniProt P05804) | – | – | – | – | > 10000 nM
CCOC(=O)[C@](CC)(CCCSCCOCCOCCNc1ccc([N+](=O)[O-])c2nonc12)NC(=O)c1ccc(C2CC2)c(Cc2ccc(F)cc2)n1 | CNR2 (Homo sapiens, UniProt P34972) | cAMP, agonist | – | – | – | 2.2 nM
CC[C@H](C)[C@H](NC(=O)CNC(=O)[C@H](CO)NC(=O)[C@H](CC(C)C)NC(=O)[C@@H](NC(=O)[C@H](CCCNC(=N)N)NC(=O)CNC(=O)[C@@H](NC(=O)[C@H](CC(C)C)NC(=O)[C@@H]1CCCN1C(=O)[C@H](CC(C)C)NC(=O)[C@@H](N)Cc1ccccc1)[C@@H](C)CC)C(C)C)C(=O)N[C@@H](CC(C)C)C(N)=O | Formyl peptide receptor 2 (Mus musculus, UniProt O88536) | calcium mobilisation, agonist, FLIPR Fluo-4 | HEK-293T with Gα16 | – | – | 690 nM
CCN1CCN(C2=Nc3cc(Cl)ccc3Nc3ccccc32)CC1 | CHRM3 (Homo sapiens, UniProt P20309, A239G/Y149C) | calcium signal, agonist | – | – | – | 7 nM
Cn1ccc(-c2ccc(Cn3cc(C(=O)N[C@H]4CCCC[C@@H]4O)c4c(F)cc(F)cc43)cn2)n1 | CHRM1 | calcium mobilization, positive allosteric modulator | CHO | together with: acetylcholine EC20 | – | 220 nM

For quick reference, copied from above:
Compound | target | assay | system | conditions | scale | EC50
CSCC[C@H](NC=O)C(=O)N[C@@H](Cc1ccccc1)C(=O)N[C@@H](CCC(=O)O)C(=O)N[C@@H](CC(=O)O)C(=O)N[C@@H](C)C(=O)N[C@H](C(=O)N[C@@H](C)C(=O)N[C@@H](Cc1c[nH]c2ccccc12)C(=O)N[C@@H](Cc1ccccc1)C(=O)O)C(C)C | FPR1 (Homo sapiens, UniProt P21462) | receptor surface downregulation, agonist | CHO cells | 1 h, 37 °C | – | 1500 ± 100 nM
